Experimental data of several laboratories.
A part holds a random share of what one study measured.
UniProt P20263, sequence (131-289, looked up): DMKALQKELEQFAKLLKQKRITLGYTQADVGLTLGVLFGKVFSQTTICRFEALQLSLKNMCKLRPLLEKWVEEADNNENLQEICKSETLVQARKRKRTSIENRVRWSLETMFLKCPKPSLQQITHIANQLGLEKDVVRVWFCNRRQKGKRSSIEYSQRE

Sample 1 — read-out: enzyme activity; action: inhibitor; concentration: 20 µM
Target: Replicase polyprotein 1ab, polymerase (rep, Severe acute respiratory syndrome coronavirus 2, UniProt P0DTD1)
Compound	inhibition [%]
Cc1nnc(C(C)C)n1[C@@H]1C[C@H]2CC[C@@H](C1)N2CC[C@H](NC(=O)C1CCC(F)(F)CC1)c1ccccc1	-1.39
CCCCN1CCC(CCC(=O)c2cc(Cl)c(N)cc2OC)CC1	1.43
CC(C)(C)c1cc(NC(=O)Nc2ccc(-c3cn4c(n3)sc3cc(OCCN5CCOCC5)ccc34)cc2)no1	-1.82
C=CC(=O)Nc1cccc(Nc2nc(Nc3ccc(N4CCN(C(C)=O)CC4)cc3OC)ncc2C(F)(F)F)c1	1.34
Oc1ccc(Cl)cc1	26.7
c1nc(CC2CCNCC2)c[nH]1	-5.58
CC(C)=CCC/C(C)=C/CC/C(C)=C/CCC(=O)OC/C=C(\C)CCC=C(C)C	9.87
COc1nccc(-c2c(-c3ccc(F)cc3)ncn2C2CCNCC2)n1	-4.25
C/C(=N\NC(=S)NNC(=S)Nc1ccccc1Cl)c1ccccn1	1.24
Cc1cc(CCCOc2c(C)cc(-c3noc(C(F)(F)F)n3)cc2C)on1	3.04
C=CCNC(=O)c1cc([N+](=O)[O-])cc2c(=O)[nH]c(Nc3ccc(Cl)c(Cl)c3)nc12	44.8
O=C1c2c(O)cc(O)cc2O[C@H](c2cc(O)c(O)c(O)c2)[C@H]1O	13
O=C(O)CC(S)C(=O)O (stereo not drawn)	-0.33
Nc1nc2c(nc(Br)n2[C@@H]2O[C@@H]3COP(=O)(O)O[C@H]3[C@H]2O)c(=O)[nH]1	0.85
Cc1cccc(Nc2ccccc2C(=O)O)c1C	5.15
Cc1onc(-c2ccccc2Cl)c1C(=O)N[C@@H]1C(=O)N2[C@@H]1SC(C)(C)[C@@H]2C(=O)O	1.85
N#Cc1ccccc1-c1cc(-c2ccccn2)cn(-c2ccccc2)c1=O	-5.6
C[C@H](N[C@@H](CCc1ccccc1)C(=O)O)C(=O)N1CCC[C@H]1C(=O)O	-3.74
CN(C)CCCN1c2ccccc2CCc2ccccc21	14.2
CC[C@H](C)n1cc(C)c2c(C(=O)NCc3c(C)cc(C)[nH]c3=O)cc(-c3ccc(N4CCNCC4)nc3)cc21	5.98
C[C@@H](c1nc(-c2ccc(C#N)cc2)cs1)[C@](O)(Cn1cncn1)c1cc(F)ccc1F	5.04
C#CCN1C(C)=C(C(=O)OC)C(c2cccc([N+](=O)[O-])c2)C(C(=O)OCC)=C1C (stereo not drawn)	-0.79
O=C1NC(=O)[C@@H](c2cn3c4c(cccc24)CCC3)[C@@H]1c1c[nH]c2ccccc12	-1.86

Sample 2 — method: RNAcompete; molecule type: RNA; sample: in vitro; concentration: 20 nM; notes: 7-mer, probes averaged, single round; reference: mean of 7-mers; direction: higher = stronger binding
Target: PABPC1L2, full length, GST fusion (mouse, UniProt A0ABA7IW68)
Residues (chain): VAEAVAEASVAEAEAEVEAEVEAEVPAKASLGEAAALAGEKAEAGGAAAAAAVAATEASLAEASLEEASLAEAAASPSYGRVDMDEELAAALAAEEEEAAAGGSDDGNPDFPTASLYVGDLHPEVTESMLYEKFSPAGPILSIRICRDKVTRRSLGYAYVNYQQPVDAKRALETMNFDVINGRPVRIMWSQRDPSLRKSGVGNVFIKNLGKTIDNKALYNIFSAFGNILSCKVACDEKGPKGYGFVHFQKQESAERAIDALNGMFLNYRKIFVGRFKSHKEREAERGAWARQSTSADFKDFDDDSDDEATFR
Strand	7-mer Z-score
UCCCAUG	-0.45
CCAAGUU	-0.28
CAGUUUC	-0.369
GGUUACA	-0.0047
AAAUGCU	0.956
CUCAACA	-0.151
UACUCUA	-0.217
UAGAGGA	0.0279

Sample 3 — method: protein-binding microarray; molecule type: double-stranded DNA, one strand shown; sample: in vitro; concentration: 250 nM; notes: 60-bp whole probe; with: salmon DNA 0.4 mg/ml; reference: random background probes; direction: higher = stronger binding; constant ends, left off below: GCCTAGCAC … GTCTTGATTCGCTTGACGCTGCTG
Target: Interferon regulatory factor 7, full length, phosphomimetic (IRF7, Homo sapiens, UniProt Q92985, residues 1-503, S101K/S471D/S472D/S475D/S476D/S477D/S483D/S484D/S487D)
Target sequence (chain): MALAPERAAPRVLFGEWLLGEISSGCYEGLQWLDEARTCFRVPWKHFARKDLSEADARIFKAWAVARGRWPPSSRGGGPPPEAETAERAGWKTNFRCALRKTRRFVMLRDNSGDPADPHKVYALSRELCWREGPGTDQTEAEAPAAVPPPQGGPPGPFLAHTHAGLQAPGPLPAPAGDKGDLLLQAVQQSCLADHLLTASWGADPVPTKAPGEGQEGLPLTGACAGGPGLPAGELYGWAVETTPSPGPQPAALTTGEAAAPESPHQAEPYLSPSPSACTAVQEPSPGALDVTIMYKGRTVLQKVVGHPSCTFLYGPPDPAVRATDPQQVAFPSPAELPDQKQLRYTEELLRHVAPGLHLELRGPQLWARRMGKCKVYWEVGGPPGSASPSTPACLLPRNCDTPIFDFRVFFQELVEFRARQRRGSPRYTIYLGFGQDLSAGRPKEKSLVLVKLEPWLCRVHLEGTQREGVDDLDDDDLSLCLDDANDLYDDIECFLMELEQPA
Strand	log fluorescence
GACGGACTGCGGTATCGGGACGTGCTA	-0.506 z-score
GACGGATTCCTACTGCTGACGTGCTAG	0.0392 z-score
TCACCTCCCCCTCTGCCACTGTGCTAG	-0.315 z-score
TCATTTTTCATTTTGTTACTGTGCTAG	3.23 z-score
GACGGTTTCGGTCTCGGGGCGTGCTAG	7.68 z-score
TCATGTGTAGGTCTTAAACTGTGCTAG	-0.455 z-score
GTAGATTTCAGTTTCGATTAGTGCTAG	8.93 z-score
TTAGCTTTCGGTCTCGGTTAGTGCTAG	2.29 z-score

Other studies, line by line
Sox2 HMG box: Transcription factor SOX-2, HMG box (Sox2, Mus musculus, UniProt P48432, residues 41-119)
UniProt P48432, sequence (41-119, looked up): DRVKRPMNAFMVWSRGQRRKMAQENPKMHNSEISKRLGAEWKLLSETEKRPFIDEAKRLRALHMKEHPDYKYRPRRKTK
EIF4A1: Eukaryotic initiation factor 4A-I (EIF4A1, Homo sapiens, UniProt P60842, residues 1-406, full length assumed)
UniProt P60842, sequence (whole entry, looked up): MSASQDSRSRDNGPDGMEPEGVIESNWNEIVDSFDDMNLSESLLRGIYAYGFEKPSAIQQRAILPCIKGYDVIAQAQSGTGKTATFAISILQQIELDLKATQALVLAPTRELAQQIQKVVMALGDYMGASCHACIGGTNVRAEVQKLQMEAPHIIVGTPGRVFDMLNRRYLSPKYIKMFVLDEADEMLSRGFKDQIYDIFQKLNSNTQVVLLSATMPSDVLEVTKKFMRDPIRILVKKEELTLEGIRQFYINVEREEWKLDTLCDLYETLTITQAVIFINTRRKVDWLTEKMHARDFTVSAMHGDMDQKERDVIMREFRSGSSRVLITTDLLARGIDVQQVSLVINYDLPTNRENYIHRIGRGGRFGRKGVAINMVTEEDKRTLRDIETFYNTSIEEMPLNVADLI
Molecule	target or system	test	system	setting	how to read	measurement	value
Thimerosal	Replicase polyprotein 1ab, 3C-like proteinase (rep, Middle East respiratory syndrome-related coronavirus, UniProt K9N7C7)	enzyme activity, inhibitor		10 µM		inhibition	46%
GAGTCGTCTCGTCAGCACCATGCGGCCGTAGAGCACTCAGGTC	Sox2 HMG box	Spec-seq	double-stranded DNA, one strand shown, in vitro	not given, whole probe, mean of replicates	reference: not given, lower = stronger binding	relative binding energy	0.518 ln ratio
CUUC	EIF4A1	RNA Bind-n-Seq	RNA, in vitro	90 pmol, 4-mer, random 30-nt RNA, single round, with: 3 µM iPr-DMDA-PatA, 2 mM ADP, 2 mM phosphate	reference: input library, higher = stronger binding	4-mer enrichment	0.924 fold
COC(=O)c1ccc2c(c1)NC(=O)/C2=C(\Nc1ccc(N(C)C(=O)CN2CCN(C)CC2)cc1)c1ccccc1	HEK-293T-ACE2			concentration not given	reference: vehicle	cell number	104%
GAGTCGTCTCGTCAGCACTCCATAATCCGTAGAGCACTCAGGTC	POU domain, class 5, transcription factor 1, POU domain (Pou5f1, Mus musculus, UniProt P20263, residues 131-289)	Spec-seq	double-stranded DNA, one strand shown, in vitro	not given, whole probe, mean of replicates	reference: not given, lower = stronger binding	relative binding energy	-0.279 ln ratio
GCAC	EIF4A1	RNA Bind-n-Seq	RNA, in vitro	90 pmol, 4-mer, random 30-nt RNA, single round, with: 3 µM DMDA-PatA, 2 mM ADP, 2 mM phosphate	reference: input library, higher = stronger binding	4-mer enrichment	0.632 fold
Oc1ccc2ccccc2c1SSc1c(O)ccc2ccccc12	Replicase polyprotein 1ab, main protease (rep, Severe acute respiratory syndrome coronavirus 2, UniProt P0DTD1)	enzyme activity, inhibitor		20 µM		inhibition	-61.1%
GAGTCGTCTCGTCAGCACGCGAGTTCCGTAGAGCACTCAGGTC	Sox2 HMG box	Spec-seq	double-stranded DNA, one strand shown, in vitro	not given, whole probe, mean of replicates	reference: not given, lower = stronger binding	relative binding energy	1.37 ln ratio
CGGA	EIF4A1	RNA Bind-n-Seq	RNA, in vitro	90 pmol, 4-mer, random 30-nt RNA, single round, with: 3 µM iPr-DMDA-PatA, 2 mM ADP, 2 mM phosphate	reference: input library, higher = stronger binding	4-mer enrichment	0.904 fold
